{"data": "Measured values pooled from the literature", "note": "A part holds a random share of what one study measured. Positions count from the first letter of the parent shown.", "chain of UniProt P61077 (whole entry, looked up)": "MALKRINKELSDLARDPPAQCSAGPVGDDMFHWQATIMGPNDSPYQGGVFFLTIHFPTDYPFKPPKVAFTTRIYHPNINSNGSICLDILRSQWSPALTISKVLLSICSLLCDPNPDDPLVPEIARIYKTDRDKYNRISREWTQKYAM"}
{"data": "Block 1", "target": "RNA binding protein fox-1 homolog 2, RRM domain, GST-SBP tag (RBFOX2, Homo sapiens, UniProt O43251-10, residues 100-194)", "method": "RNA Bind-n-Seq", "form": "RNA", "matrix": "in vitro", "tested at": "365 nM", "notes": "natural RNA segment, single round, ends assumed", "reference": "no-protein control", "reading": "higher = stronger binding", "all sequences stand within": "GGGAGUUCUACAGUCCGACGAUC … UGGAAUUCUCGGGUGCCAA", "Residues (chain)": "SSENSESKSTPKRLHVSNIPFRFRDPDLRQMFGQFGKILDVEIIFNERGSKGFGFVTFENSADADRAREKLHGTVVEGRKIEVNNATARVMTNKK"}
{"Sequence": "GCACAGGGUGAGACCCUUUUACACAGAAUGGUGGAGAGAAAAGAGAAUGCUGAAAAGUGGCUCAGAUGCAGAGUGUUCUGUGGAGAAACUGCAGCCCCACUUCUGUUUCC", "RBNS enrichment (R)": 2.41}
{"Sequence": "UGGUUGUGGGUUUUUCAAGGUGCCAUAGCCACCCCCAAAGAUGUUUGUUUAAAGCGUGGGGUUUUUUAAUCUCUGCCACCCUUGUCAAGGGAGUCUUGUAAAGUUGCCGA", "RBNS enrichment (R)": 0.457}
{"Sequence": "UUGACAAUGUCAGCUCCACUUUAGAAAUUUUCAAUAACCAGAUGAGAAAAAAAUUAAGAAAUUGCUCAAGGGAAACAUUUGUAAAUGGAUUUGAAAGAUUGAGCCAAAUU", "RBNS enrichment (R)": 0.698}
{"Sequence": "AAGCAGCUGGACUAUGCAAAAAGUAUUUCUCUGUCAGUUCCCCACUCUAUACCAAGGAUAUUAUUAAAACUAGAAAUGACUGCAUUGAGAGGGAGUUGUGGGAAAUAAGA", "RBNS enrichment (R)": 0.61}
{"Sequence": "UUUAGCUACGUGGACCGGCUCUUCUCACCCCCCAGAUGAUGCUGGCAUGGAACGCAGUGCUCUUCACCGUCUGGCGAGUGCAUGCCAAGAGAGCUAGACAGCAGCAUUAC", "RBNS enrichment (R)": 12.9}
{"Sequence": "UUAAGUUUUAUGUGUAUUAUCUUCCCACUACCAAGAAUGGUUAUGUUUCACAGAAUACCAGUUCAGUUUGAUUUGGAAAAAGAUGCCAAACCAAAUUUAUAUGUAGUCUA", "RBNS enrichment (R)": 1.2}
{"Sequence": "CGGAAUCCACUUAGGCAUGUGUCCCCUGAUGGAUGAAUACAUGGGAAUGGUGGAUACUGUCUUCUGACUCAGGCUCUAGGCUCCAUGGCUUCCUCUCUCUGGUCCUGCCA", "RBNS enrichment (R)": 0.262}
{"Sequence": "UAUUAUUUCUCUUUGCUUUCUCAAUGUUAAUUUAUUGCAUGGUUUAUUCUUUUUCUUUACAGCUGAAAUUGCUUUAAAUGAUGGUUAAAAUUACAAAUUAAAUUGUUAAU", "RBNS enrichment (R)": 2.7}
{"data": "Block 2", "target": "Prothrombin, mature alpha-thrombin (F2, Homo sapiens, UniProt P00734)", "method": "aptamer microarray, sandwich", "form": "DNA with 2'F-ANA", "matrix": "in vitro", "tested at": "200 nM", "notes": "whole 15-mer aptamer, many near background", "with": "Cy3 exosite-II aptamer, 400 nM", "reading": "higher = stronger binding", "sequence": "GGTTGGTGTGGTTGG"}
{"Modification": "2'F-ANA at 1 2 3 4 5 7 8 10 13 14", "mean fluorescence intensity": "89.4 a.u."}
{"Modification": "2'F-ANA at 1 3 5 9 10 11 14", "mean fluorescence intensity": "73.5 a.u."}
{"Modification": "2'F-ANA at 1 3 5 6 7 10 11", "mean fluorescence intensity": "46.7 a.u."}
{"Modification": "2'F-ANA at 3 4 5 9 10 13 14", "mean fluorescence intensity": "49 a.u."}
{"Modification": "2'F-ANA at 1 5 8 9 11 12 14 15", "mean fluorescence intensity": "120 a.u."}
{"Modification": "2'F-ANA at 1 2 4 5 6 7 12 13 14 15", "mean fluorescence intensity": "46.6 a.u."}
{"Modification": "2'F-ANA at 1 3 4 5 8 9 10 11 15", "mean fluorescence intensity": "91.1 a.u."}
{"Modification": "2'F-ANA at 3 4 7 8 14", "mean fluorescence intensity": "432 a.u."}
{"data": "Other studies, line by line", "matrix": "yeast", "reference": "not given", "P1": "viral docking peptide; YKVKRRLVFGADD; partner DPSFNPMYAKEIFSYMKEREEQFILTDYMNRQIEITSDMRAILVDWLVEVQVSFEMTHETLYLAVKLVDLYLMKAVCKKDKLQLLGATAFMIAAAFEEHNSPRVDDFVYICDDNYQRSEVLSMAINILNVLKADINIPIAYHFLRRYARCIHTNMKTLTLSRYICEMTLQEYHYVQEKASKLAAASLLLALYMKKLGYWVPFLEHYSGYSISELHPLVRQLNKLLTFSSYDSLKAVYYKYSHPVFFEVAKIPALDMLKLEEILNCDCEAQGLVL", "B1": "RNF170 RING domain (UniProt Q96K19); chain TRQQFYTDMYCPICLHQASFPVETNCGHLFCGACIIAYWRYGSWLGAISCPICRQTVTLLLTVF"}
{"Molecule": "P1 V8I", "target": "CCNB3, cyclin fold, Cln2 fusion (human)", "method": "yeast growth competition, sequencing", "notes": "strong parent motif", "reading": "higher = stronger binding", "measurement": "normalised enrichment score", "value": 1.85}
{"Molecule": "B1 (RNF170 RING domain)", "target": "UBE2D3 UBC core domain (UniProt P61077)", "method": "yeast two-hybrid", "notes": "mostly zero background", "reading": "higher = stronger interaction", "measurement": "lacZ reporter activity", "value": 0}
{"note": "Repeated from above (block 2):"}
{"Modification": "2'F-ANA at 1 3 5 6 7 10 11", "mean fluorescence intensity": "46.7 a.u."}
{"Modification": "2'F-ANA at 3 4 5 9 10 13 14", "mean fluorescence intensity": "49 a.u."}
{"Modification": "2'F-ANA at 1 5 8 9 11 12 14 15", "mean fluorescence intensity": "120 a.u."}
